Results pooled from the literature.
Each numbered part is a random draw from the data of one study; scales do not carry over between parts. Substitutions count along the parent as printed.
Sequence of UniProt Q9C0B0 (30-357, looked up): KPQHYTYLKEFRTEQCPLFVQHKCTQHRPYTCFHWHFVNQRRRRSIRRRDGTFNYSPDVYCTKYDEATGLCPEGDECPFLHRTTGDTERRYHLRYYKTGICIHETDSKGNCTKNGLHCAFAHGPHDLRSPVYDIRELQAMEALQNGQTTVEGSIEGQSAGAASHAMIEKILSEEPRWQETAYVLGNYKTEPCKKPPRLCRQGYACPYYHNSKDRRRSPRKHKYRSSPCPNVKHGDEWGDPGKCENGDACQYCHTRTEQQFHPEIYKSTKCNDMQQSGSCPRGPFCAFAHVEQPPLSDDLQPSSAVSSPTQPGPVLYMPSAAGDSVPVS

Sample 1
Target: Ras GTPase-activating protein-binding protein 1, RRM domain (G3BP1, Homo sapiens, UniProt Q13283)
Sequence of UniProt Q13283 (whole entry, looked up): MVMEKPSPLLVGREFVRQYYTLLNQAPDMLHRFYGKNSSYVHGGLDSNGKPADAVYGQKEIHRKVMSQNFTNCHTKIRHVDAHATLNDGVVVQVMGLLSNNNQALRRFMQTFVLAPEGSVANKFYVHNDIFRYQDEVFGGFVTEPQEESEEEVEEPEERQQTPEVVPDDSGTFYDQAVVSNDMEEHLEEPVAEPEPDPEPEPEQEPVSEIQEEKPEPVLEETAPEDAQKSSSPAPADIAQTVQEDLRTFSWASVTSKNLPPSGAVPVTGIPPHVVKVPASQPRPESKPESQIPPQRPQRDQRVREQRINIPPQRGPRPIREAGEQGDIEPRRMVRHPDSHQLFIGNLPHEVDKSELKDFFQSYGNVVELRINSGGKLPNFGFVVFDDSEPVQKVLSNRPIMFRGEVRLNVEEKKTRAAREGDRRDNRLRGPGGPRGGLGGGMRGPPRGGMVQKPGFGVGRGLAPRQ
Method: RNA Bind-n-Seq
Form: RNA
Medium: in vitro
Concentration: 1 µM
Notes: whole 134-nt RNA, ends assumed
With: 150 mM KCl
Baseline: input library
Reading: higher = stronger binding
Measurement: log2 enrichment
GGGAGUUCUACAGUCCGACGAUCGCAGGAAGUAAAAACAAAUGGAAAUGCUUCGGAUAGUGGCAGGGGUGGGGGUUGCUAAGGAAAGGGUGGGAUGGGAGUGGGUAAAGAGUGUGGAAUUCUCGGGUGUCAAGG: 0.757
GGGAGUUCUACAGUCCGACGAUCACCAUGCAGGUGGGCAUCUUUGGGAAGUGGGGCAAGGGGGGGAUAGGGAGGGGGGUAACACUUUGGGAACAGGUGGUCCCAGGCCGUUUCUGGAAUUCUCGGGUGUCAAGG: 0.544
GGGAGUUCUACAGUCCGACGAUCAAGUCCUGUGCUACACAUCGUAUGUACCGAAUCGGAAAAAGGAAAAAGGAAAAAGGGAAAGUAUUAUGUUACGCCGUUCGGAUCUGCACUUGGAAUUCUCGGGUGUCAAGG: 0.00901
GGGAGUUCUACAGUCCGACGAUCCAAGUCCUGUGCUACACAUCGUAUGUACCGAAUCGGUUUGGAAAAAAAGGAAAGGAAAGUAUUAUGUUACGCCGUUCGGAUCUGCACUUCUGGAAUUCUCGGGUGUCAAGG: -0.239
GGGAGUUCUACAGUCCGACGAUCAGUCCUGUGCUACACAUCGUAUGUACCGAAUCGGGCCCCGGGCCCCGGGGCCCCGGGGAAAGUAUUAUGUUACGCCGUUCGGAUCUGCACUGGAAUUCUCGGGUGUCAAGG: -0.668
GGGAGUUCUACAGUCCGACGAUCGUCCUGUGCUACACAUCGUAUGUACCGAAUCGGGAAAAAAAGGGUUUUUGGGAAAGGGAAAGUAUUAUGUUACGCCGUUCGGAUCUGCACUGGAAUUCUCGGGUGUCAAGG: 0.049
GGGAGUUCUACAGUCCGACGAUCAGUCCUGUGCUACACAUCGUAUGUACCGAAUCGGGCCCCCGGCCCCCGGGCCCCCGGAAAGUAUUAUGUUACGCCGUUCGGAUCUGCACUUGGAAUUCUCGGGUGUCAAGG: -0.546
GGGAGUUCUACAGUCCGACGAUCCUGUGCUACACAUCGUAUGUACCGAAUCGGGGUUUUUUUGGGUUUUUUUGGGUUUUUUUGGGAAAGUAUUAUGUUACGCCGUUCGGAUCUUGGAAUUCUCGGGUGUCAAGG: -0.24
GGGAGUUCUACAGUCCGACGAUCGCAGGAAGUAAAAACAAAUGGAAAUGCUUCGGAUAGUGGCAGGGGUGAGGGUUGCUAAGGAAAGGGUGGGAUGGGAGUGGGUAAAGAGUUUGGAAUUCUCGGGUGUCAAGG: 0.599

Sample 2
Target: CCNA2, cyclin fold, Cln2 fusion (human)
Method: yeast growth competition, sequencing
Medium: yeast
Notes: strong parent motif
Baseline: not given
Reading: higher = stronger binding
Measurement: normalised enrichment score
Starting sequence: RBL1 docking peptide (human); GSAKRRLFGEDPP; partner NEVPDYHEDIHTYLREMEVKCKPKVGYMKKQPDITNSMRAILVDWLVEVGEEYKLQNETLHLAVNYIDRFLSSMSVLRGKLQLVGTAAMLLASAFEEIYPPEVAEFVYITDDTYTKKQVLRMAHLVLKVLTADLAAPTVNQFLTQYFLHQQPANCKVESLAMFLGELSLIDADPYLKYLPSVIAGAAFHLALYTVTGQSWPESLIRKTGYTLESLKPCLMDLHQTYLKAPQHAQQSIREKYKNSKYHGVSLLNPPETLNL
G1D: 4.5
E10Y: 5.02
K4N: 2.63
S2A: 5.34
P12Q: 5.43
D11F: 5.56
G9P: 6.2
L7I: 2.58
R5V: 1.62
E10T: 5.25
S2E: 4.03
P12E: 6.71
P13G: 5.51
P13M: 5.53
A3L: 1.96
F8T: 0.931
P12M: 5.66
D11C: 6.01

Sample 3
Target: RNA binding protein fox-1 homolog 2, RRM domain, GST-SBP tag (RBFOX2, Homo sapiens, UniProt O43251-10, residues 100-194)
Method: RNA Bind-n-Seq
Form: RNA
Medium: in vitro
Concentration: 365 nM
Notes: natural RNA segment, single round, ends assumed
Baseline: no-protein control
Reading: higher = stronger binding
Measurement: RBNS enrichment (R)
Target sequence (chain): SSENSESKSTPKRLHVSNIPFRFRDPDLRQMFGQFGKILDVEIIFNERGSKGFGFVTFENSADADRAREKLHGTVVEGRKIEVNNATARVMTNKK
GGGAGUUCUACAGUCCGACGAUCUUUUUUAAAAAAUGAAAAAGAAAAAAAAGAAGAGAAAAACCCAUAAAUAAGUGCAUUGAGAAGAACAUGGAGAGGAUGCUGUCCUCUGCAACAGAGACAGGCCCGUGGCGUGGAAUUCUCGGGUGCCAA: 0.502
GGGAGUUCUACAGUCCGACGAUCAAAUCCUAGGAAACUGGAGCAACUGGUACAACUGGUCACCUACUCUUGCCCCUCUGUAAAUCAAGCCAACUGUGACCAUCCAAUGUGCCAUCUUACAGGGAAAAGUUAUAUGGAAUUCUCGGGUGCCAA: 0.284
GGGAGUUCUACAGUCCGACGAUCUGUAAAUAGAAUUGCAACUGUCAGGUUUUGUGUUCUUGUUUUCCUUUAGUUGGGUUUAUUUCCAGGUCACAGAAUUGCUGUUAACACUAGAAAACACACUUCCUGCACCAUGGAAUUCUCGGGUGCCAA: 0.994
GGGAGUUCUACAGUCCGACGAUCUAUGGAACAUAAAGUUGUAUUGCAUGCAAUUUGAAGUAACUUAUUUGACUAUGAAUGUUAUCGGAUUACUGAAUUGUAUCAAUUUGUUUGUGUUCAAUAUCAGCUUUGAUUGGAAUUCUCGGGUGCCAA: 7.92
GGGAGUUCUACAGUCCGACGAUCACCCCUGCUGAGCGUGAUGGUCUAGCCUCCAUCAUGAAGAAGCUCUUGACCAAGUAUGACAACCUCUUUGAGACGUCCUUUCCCUACUCCAUGGGCUGGCAUGGGGCUCCUGGAAUUCUCGGGUGCCAA: 0.544
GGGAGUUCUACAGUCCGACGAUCGGCUCCUGGUGAAGAGAGGGUGGAAAGGCCCUUCAGCCCCAGGGCCAUGUCUGGGUUCUCCAUGCCCAUCAGUCUCUGCAGUUUCUCUACCUGCCCCCAGAGCUGAGGCCUGGAAUUCUCGGGUGCCAA: 0.337
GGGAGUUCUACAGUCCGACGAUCUGAGUGAAGUGGCUGCAACUUGGCAGCCCCAAAACCUGCCACACCCCUGCACCCCUGGAAGCCCAGCACCGGGGCCAGCAGGCUGUGUUCCGUGCUUGCCAACCUAGACCUGGAAUUCUCGGGUGCCAA: 0.318
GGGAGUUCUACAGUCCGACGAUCAUUUGAGACAGGGUUGGACUCCCAUUUCUCAUCCGAGAAAUUACUUAACCCUUCCUGGCGCUGUACAGUCAUCUUUUAUUCUAUUUCCUCUUUGCUGUUUGUAGUAGAGAUGGAAUUCUCGGGUGCCAA: 0.377

Sample 4
Target: Centromere-binding protein 1, full length, His-tagged (CBF1, Saccharomyces cerevisiae, UniProt P17106, residues 1-351)
Sequence of UniProt P17106 (whole entry, looked up): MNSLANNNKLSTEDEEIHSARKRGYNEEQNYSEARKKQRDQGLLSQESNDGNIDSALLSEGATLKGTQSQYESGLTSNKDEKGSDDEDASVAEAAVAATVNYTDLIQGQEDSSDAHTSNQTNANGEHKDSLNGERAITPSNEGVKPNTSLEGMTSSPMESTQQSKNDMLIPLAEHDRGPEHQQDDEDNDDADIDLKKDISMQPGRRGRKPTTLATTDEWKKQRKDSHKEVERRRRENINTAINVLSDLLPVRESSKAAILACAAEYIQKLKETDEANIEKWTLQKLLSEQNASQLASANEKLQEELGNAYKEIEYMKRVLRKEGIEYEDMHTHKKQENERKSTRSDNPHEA
Method: competition protein-binding microarray
Form: double-stranded DNA, one strand shown
Medium: in vitro
Concentration: 2 µM
Notes: whole 60-bp probe, lowest competitor level
With: Pho4 competitor, 0.05 µM
Reading: higher = stronger binding
Measurement: fluorescence intensity
TGCGCAACAACTTGTCTCGTGGGTGTATGTCTAGAAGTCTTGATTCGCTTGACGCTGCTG: 91.8 a.u.
AAAGCGGTAATTTGTCACCGTACTTCACATATCTATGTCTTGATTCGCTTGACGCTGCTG: 82.3 a.u.
CGGGGTTAAGTTTGCATGGTGGGTGGCTTGCAGCAGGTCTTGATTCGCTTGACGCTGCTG: 64.8 a.u.
AAGCAAGAACGAAAGCACGTTCTTGAAGATCTGCATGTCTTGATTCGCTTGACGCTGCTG: 111 a.u.
TCAGGTAGATCTTAGCACGTGTGGAAGCGCATAACAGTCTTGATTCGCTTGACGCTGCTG: 1160 a.u.
TTGTTATTTTGTCCGCGCATGTCCCGGACCCGCCATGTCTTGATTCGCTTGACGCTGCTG: 58.9 a.u.
GAGTTTGTTTTCCTTCACATGATGAAGAAGGTTTGAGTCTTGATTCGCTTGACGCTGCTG: 287 a.u.
AAGAAAAAATTCACAAGCGTGTCCTTTAGTGCAGCTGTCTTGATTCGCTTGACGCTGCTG: 79.7 a.u.
GTAATCCCAATTCACCACGTTCTTCCATGTTCAAGTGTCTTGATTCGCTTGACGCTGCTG: 105 a.u.
CTAACGAAGGTTTGTCACAGAACTTACAAGCCAAGTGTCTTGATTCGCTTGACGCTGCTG: 67.7 a.u.
TACGTATATTGCCTTCACATGCCGAGAAAGCCGACAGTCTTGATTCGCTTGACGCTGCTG: 105 a.u.
AAATTACTAAGTTGCTGTGTGGGTGACGCCGTATGAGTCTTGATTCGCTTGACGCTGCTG: 65.5 a.u.
AAAGCGGTAATTTCACACGTGTTTTCACATATCTATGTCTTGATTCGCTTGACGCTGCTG: 1650 a.u.
CGGGGTTAAGTTTGCCTCGTGGGTGGCTTGCAGCAGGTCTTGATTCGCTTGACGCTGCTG: 83.3 a.u.
GTCCTGGAAGCCTGACGCGTGCGATCTTCTCCTCCCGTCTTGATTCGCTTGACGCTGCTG: 81.7 a.u.
CGGGGTTAAGTTTGTCACCGAACTTGCTTGCAGCAGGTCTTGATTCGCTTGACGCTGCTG: 60.1 a.u.
GCTCAAATAAAAGGACACGTGGTCAACCCTCAATCAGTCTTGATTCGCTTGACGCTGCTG: 3870 a.u.
CAAATTTGCCAGCGTCACAATGTCGTTTGCCTCTTGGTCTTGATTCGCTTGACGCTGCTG: 77.3 a.u.
TTTAAAATGAGTGCGTAACCGTACTTTCCTAAAAATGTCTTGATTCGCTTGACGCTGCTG: 68.3 a.u.

Single results of other studies
GGGAGUUCUACAGUCCGACGAUCAAAUUUAUUUCAUGCCCUGGACUCCCUAUCGUACCGAUACUUUAACCGAAUAUGCUUCUUCCGAAGAUUUCCAAAACCGUCGCCAAACAACAACAUAUAAACUUCCAAAUCGAGCCGAUGCAACAGAGGAUUGAGCAUCA
bound/input enrichment (RING finger protein unkempt homolog, zinc fingers 1-6, SBP tag (UNK, Homo sapiens, UniProt Q9C0B0, residues 30-357); RNA Bind-n-Seq; RNA, in vitro; 100 nM, RNA with constant flanks, ends assumed; baseline: input RNA pool, higher = stronger binding): 0.836 ratio

A few entries again (sample 3):
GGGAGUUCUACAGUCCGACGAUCUUUUUUAAAAAAUGAAAAAGAAAAAAAAGAAGAGAAAAACCCAUAAAUAAGUGCAUUGAGAAGAACAUGGAGAGGAUGCUGUCCUCUGCAACAGAGACAGGCCCGUGGCGUGGAAUUCUCGGGUGCCAA: 0.502
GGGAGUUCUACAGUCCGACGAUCAAAUCCUAGGAAACUGGAGCAACUGGUACAACUGGUCACCUACUCUUGCCCCUCUGUAAAUCAAGCCAACUGUGACCAUCCAAUGUGCCAUCUUACAGGGAAAAGUUAUAUGGAAUUCUCGGGUGCCAA: 0.284
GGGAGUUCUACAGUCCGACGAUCUGUAAAUAGAAUUGCAACUGUCAGGUUUUGUGUUCUUGUUUUCCUUUAGUUGGGUUUAUUUCCAGGUCACAGAAUUGCUGUUAACACUAGAAAACACACUUCCUGCACCAUGGAAUUCUCGGGUGCCAA: 0.994
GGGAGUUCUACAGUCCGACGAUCUAUGGAACAUAAAGUUGUAUUGCAUGCAAUUUGAAGUAACUUAUUUGACUAUGAAUGUUAUCGGAUUACUGAAUUGUAUCAAUUUGUUUGUGUUCAAUAUCAGCUUUGAUUGGAAUUCUCGGGUGCCAA: 7.92
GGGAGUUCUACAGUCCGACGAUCACCCCUGCUGAGCGUGAUGGUCUAGCCUCCAUCAUGAAGAAGCUCUUGACCAAGUAUGACAACCUCUUUGAGACGUCCUUUCCCUACUCCAUGGGCUGGCAUGGGGCUCCUGGAAUUCUCGGGUGCCAA: 0.544
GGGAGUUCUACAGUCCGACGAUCGGCUCCUGGUGAAGAGAGGGUGGAAAGGCCCUUCAGCCCCAGGGCCAUGUCUGGGUUCUCCAUGCCCAUCAGUCUCUGCAGUUUCUCUACCUGCCCCCAGAGCUGAGGCCUGGAAUUCUCGGGUGCCAA: 0.337
